{"data": "Published values pooled from the literature", "note": "± gives the spread as reported."}
{"Compound": "COc1cc(N2CCN(C(=O)CN)CC2)ccc1Nc1ncc(Cl)c(Nc2ccccc2P(C)(C)=O)n1", "cell line": "NCI-H3122", "test": "cell growth or viability, CCK-8", "setting": "48 h", "IC50": "0.069 µM"}
{"Compound": "CCCCCCCCCCCCCCCCCCCC(=O)N[C@@H](CCCCN)C(=O)N[C@@H](CCCCN)C(=O)N[C@@H](CCCCN)C(=O)N[C@@H](CCCCN)C(=O)N[C@@H](CCCCN)C(N)=O", "cell line": "HCEC", "test": "cytotoxicity", "IC50": "22.5 µg/mL"}
{"Compound": "O=[N+]([O-])c1ccc(NC2=N[N+](=Cc3cccs3)[Pt-]([Cl])([Cl])[S]2)cc1", "cell line": "CRFK", "test": "cell growth or viability", "IC50": "> 100 µM"}
{"Compound": "CC(C)c1cccc(C(C)C)c1-n1c(Cl)c(Cl)n(-c2c(C(C)C)cccc2C(C)C)c1=[Se].[Cl][Au]", "cell line": "LoVo MDR", "test": "MTT", "setting": "72 h", "IC50": "4.1 µM"}
{"Compound": "O=C(Cc1ccc2ccccc2c1)N[C@H](Cc1ccccc1)C(=O)N[C@H](Cc1ccc(OP(=O)(O)O)cc1)C(=O)N[C@H](Cc1ccccc1)C(=O)N[C@H](Cc1ccc(OP(=O)(O)O)cc1)C(=O)O", "cell line": "A2780cis", "test": "cell growth or viability, MTT", "IC50": "> 483 µg/mL"}
{"Compound": "CC(=O)[O-].O.O.O.O.[Co+2].[O-]c1ccc(Br)cc1C=NCCN1CCOCC1", "cell line": "NHDF normal fibroblasts", "test": "cell viability, MTT", "setting": "72 h", "IC50": "58.2 µg/mL"}
{"Compound": "COc1ccc(/C=C/C2=[N+]3C(=C(CO)c4c(C)cc(/C=C/c5ccc(OC)cc5)n4[B-]3(C)C)C(C)=C2)cc1", "cell line": "RPE-1", "test": "cell growth or viability, resazurin", "setting": "dark", "IC50": "> 100 µM"}
{"Compound": "[Cl][Cu-][c]1n(-c2c(C(c3ccccc3)c3ccccc3)cc(C(c3ccccc3)c3ccccc3)cc2C(c2ccccc2)c2ccccc2)c2c([n+]1-c1c(C(c3ccccc3)c3ccccc3)cc(C(c3ccccc3)c3ccccc3)cc1C(c1ccccc1)c1ccccc1)-c1cccc3cccc-2c13", "cell line": "C13 cisplatin-resistant", "test": "cell viability, MTT", "setting": "72 h", "IC50": "> 50 µM"}
{"Compound": "O=C1C(Cl)=C(Cl)C(=O)c2c1cccc2[N+](=O)[O-]", "cell line": "MOLT-3", "test": "cell growth or viability, XTT", "setting": "48 h", "IC50": "79.9 µM"}
{"Compound": "CN1CCN(c2ccc(Nc3ncc(Cl)c(Nc4ccccc4NS(=O)(=O)C4CC4)n3)cc2)CC1", "cell line": "Ba/F3 EGFR 19del/T790M/C797S", "test": "cell growth, CCK-8", "setting": "48 h", "IC50": "0.025 µM"}
{"Compound": "[Cl][Pt-]1([Cl])[S]C(Nc2ccccc2)=N[N+]1=Cc1cccs1", "cell line": "CEM human lymphocytes", "test": "cell proliferation", "IC50": "55 µM"}
{"Compound": "Cn1cc(-c2cc(N3CCCCS3(=O)=O)ccc2N[C@H]2CC[C@H](C)CC2)c2cc[nH]c2c1=O (stereo in doubt)", "cell line": "Light2 cells expressing SMO^WT", "test": "GLI-luciferase reporter, inhibitor, measured: SMO^WT", "IC50": "0.00039 µM"}
{"Compound": "O=C1CCC(N2C(=O)c3ccc(N4CCC(C(=O)N5CCC(CCN6CCC(CNC(=O)c7cccc(-c8noc(C(F)(F)F)n8)c7)(c7nc(-c8ccccc8)cs7)CC6)CC5)CC4)cc3C2=O)C(=O)N1 (stereo not drawn)", "cell line": "DHL6", "test": "cell proliferation, CCK-8", "setting": "120 h", "IC50": "1 µM"}
{"Compound": "C=CCc1ccc(OC(C)=O)c(OC)c1", "cell line": "RT-112", "test": "MTT", "setting": "24 h", "IC50": "> 50 µM"}
{"Compound": "CC1=C2[O][Ru-]([Cl])[O+]=C2C=CN1CCCN1C=CC2=[O+][Ru-]([Cl])[O]C2=C1C.Cc1ccc(C(C)C)cc1.Cc1ccc(C(C)C)cc1", "cell line": "DAN-G", "test": "cell growth or viability, crystal violet", "setting": "96 h", "IC50": "> 20 µM"}
{"Compound": "Cc1c(-c2cccc(C3=NCCN3)c2)oc(-c2cccc(C3=NCCN3)c2)c1C", "cell line": "786-O", "test": "cell growth, SRB", "setting": "96 h", "IC50": "3 µM"}
{"Compound": "C1=CCC=C1.[Cl][Au-]1([Cl])[N+](=P(c2ccccc2)(c2ccccc2)[c-]2cccc2)Cc2cccc[n+]21.[Fe+2].[O-][Cl+3]([O-])([O-])[O-]", "cell line": "A2780cisR (cisplatin-resistant)", "test": "cell growth, MTT", "setting": "74 h, 1% DMSO", "IC50": "25.2 ± 4.3 µM"}
{"Compound": "CC(=O)OC[C@]1(C)CCC[C@]2(CO)[C@@H]1CC[C@@]13C[C@@H](C[C@H](O)[C@H]12)[C@H](C)C3=O", "cell line": "786-0", "test": "cell growth or viability, MTT", "IC50": "3.8 µM"}
{"Compound": "C[C@@H]1NC(=O)[C@H](CCC(=O)O)NC(=O)[C@@H](Cc2ccccc2)NC(=O)[C@H](CCC(=O)O)NC(=O)[C@H](CC(N)=O)NC1=O", "cell line": "WM-115", "test": "WM-115 cell adhesion, inhibitor", "setting": "1 h, together with: immobilized CagL RGA mutant", "IC50": "43 to 340 µM"}
{"Compound": "Cc1ccc2oc(-c3c4c(N)n[nH]c(=O)c4nn3-c3ccccc3)c(C)c2c1", "cell line": "SNU-16", "test": "cell growth or viability", "IC50": "> 1 µM"}
{"Compound": "Cc1c(C)c(C)[c-](C)c1C.Fc1c[c-]c(-c2ccccn2)cc1.[Cl-].[Ir+3]", "cell line": "A2780 cells", "test": "cell growth, SRB", "setting": "24 h exposure, 72 h recovery", "IC50": "2.7 ± 0.3 µM"}
{"note": "Repeated from above:"}
{"Compound": "C[C@@H]1NC(=O)[C@H](CCC(=O)O)NC(=O)[C@@H](Cc2ccccc2)NC(=O)[C@H](CCC(=O)O)NC(=O)[C@H](CC(N)=O)NC1=O", "cell line": "WM-115", "test": "WM-115 cell adhesion, inhibitor", "setting": "1 h, together with: immobilized CagL RGA mutant", "IC50": "43 to 340 µM"}
{"Compound": "Cc1ccc2oc(-c3c4c(N)n[nH]c(=O)c4nn3-c3ccccc3)c(C)c2c1", "cell line": "SNU-16", "test": "cell growth or viability", "IC50": "> 1 µM"}
{"Compound": "Cc1c(C)c(C)[c-](C)c1C.Fc1c[c-]c(-c2ccccn2)cc1.[Cl-].[Ir+3]", "cell line": "A2780 cells", "test": "cell growth, SRB", "setting": "24 h exposure, 72 h recovery", "IC50": "2.7 ± 0.3 µM"}
